Published values collected from several papers.
Values after ≈ are worked out from the molar mass of the structure shown.
Chain of UniProt Q6P3R8 (whole entry, looked up): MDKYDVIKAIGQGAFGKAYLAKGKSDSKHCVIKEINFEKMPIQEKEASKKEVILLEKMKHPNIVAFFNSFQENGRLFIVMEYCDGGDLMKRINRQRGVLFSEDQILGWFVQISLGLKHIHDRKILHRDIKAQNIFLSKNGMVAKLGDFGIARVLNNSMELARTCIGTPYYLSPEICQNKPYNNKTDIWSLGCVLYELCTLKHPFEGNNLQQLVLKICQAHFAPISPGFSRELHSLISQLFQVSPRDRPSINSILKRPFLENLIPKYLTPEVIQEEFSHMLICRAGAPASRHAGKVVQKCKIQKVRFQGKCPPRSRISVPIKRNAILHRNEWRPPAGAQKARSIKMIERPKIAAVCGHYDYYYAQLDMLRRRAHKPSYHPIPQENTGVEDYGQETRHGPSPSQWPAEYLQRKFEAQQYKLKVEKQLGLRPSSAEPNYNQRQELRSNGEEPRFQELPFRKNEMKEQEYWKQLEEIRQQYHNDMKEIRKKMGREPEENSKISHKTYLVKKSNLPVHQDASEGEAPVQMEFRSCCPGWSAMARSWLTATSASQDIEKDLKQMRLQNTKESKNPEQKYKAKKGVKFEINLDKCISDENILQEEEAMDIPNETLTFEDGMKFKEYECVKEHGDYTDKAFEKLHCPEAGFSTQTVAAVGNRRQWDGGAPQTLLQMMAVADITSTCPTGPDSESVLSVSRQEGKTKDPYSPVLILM
Chain of UniProt Q8IVW4 (whole entry, looked up): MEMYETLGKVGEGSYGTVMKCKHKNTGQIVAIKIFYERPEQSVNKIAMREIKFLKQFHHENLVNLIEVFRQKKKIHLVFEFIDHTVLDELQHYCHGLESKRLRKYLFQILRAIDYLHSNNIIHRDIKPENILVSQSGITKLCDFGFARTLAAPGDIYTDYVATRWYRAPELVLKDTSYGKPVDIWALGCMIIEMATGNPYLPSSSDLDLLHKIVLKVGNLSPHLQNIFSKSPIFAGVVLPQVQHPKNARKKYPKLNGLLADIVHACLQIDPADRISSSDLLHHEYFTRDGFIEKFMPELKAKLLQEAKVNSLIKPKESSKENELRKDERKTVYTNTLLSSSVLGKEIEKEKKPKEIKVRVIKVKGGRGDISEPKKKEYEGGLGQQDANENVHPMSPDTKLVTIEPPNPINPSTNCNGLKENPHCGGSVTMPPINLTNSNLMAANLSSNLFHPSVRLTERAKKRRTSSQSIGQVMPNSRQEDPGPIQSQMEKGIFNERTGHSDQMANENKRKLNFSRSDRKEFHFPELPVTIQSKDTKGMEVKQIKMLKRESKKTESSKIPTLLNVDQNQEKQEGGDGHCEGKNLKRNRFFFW
Chain of UniProt Q9H2K8 (whole entry, looked up): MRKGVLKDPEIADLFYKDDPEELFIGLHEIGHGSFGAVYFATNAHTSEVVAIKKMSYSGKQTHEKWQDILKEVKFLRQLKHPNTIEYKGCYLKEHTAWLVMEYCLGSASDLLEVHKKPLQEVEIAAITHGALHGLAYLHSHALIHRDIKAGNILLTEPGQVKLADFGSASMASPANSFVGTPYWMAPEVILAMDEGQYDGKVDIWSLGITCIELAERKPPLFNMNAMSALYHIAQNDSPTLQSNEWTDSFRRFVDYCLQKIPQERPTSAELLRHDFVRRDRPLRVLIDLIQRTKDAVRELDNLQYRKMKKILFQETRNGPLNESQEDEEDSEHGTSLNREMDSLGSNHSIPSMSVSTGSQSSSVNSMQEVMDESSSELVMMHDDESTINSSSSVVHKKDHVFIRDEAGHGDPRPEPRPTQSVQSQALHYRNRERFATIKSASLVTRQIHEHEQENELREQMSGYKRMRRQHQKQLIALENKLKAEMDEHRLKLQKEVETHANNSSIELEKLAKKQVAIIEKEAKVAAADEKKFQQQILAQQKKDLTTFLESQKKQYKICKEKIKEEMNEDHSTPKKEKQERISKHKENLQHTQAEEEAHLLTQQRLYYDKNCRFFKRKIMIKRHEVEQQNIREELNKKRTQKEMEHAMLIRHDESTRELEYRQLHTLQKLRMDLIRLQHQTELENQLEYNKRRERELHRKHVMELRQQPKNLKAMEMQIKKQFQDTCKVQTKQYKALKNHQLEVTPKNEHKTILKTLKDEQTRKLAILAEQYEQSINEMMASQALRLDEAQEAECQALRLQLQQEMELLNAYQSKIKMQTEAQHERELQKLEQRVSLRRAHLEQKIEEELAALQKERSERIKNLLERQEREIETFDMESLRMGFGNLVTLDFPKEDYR
Chain of UniProt Q9NYB5 (whole entry, looked up): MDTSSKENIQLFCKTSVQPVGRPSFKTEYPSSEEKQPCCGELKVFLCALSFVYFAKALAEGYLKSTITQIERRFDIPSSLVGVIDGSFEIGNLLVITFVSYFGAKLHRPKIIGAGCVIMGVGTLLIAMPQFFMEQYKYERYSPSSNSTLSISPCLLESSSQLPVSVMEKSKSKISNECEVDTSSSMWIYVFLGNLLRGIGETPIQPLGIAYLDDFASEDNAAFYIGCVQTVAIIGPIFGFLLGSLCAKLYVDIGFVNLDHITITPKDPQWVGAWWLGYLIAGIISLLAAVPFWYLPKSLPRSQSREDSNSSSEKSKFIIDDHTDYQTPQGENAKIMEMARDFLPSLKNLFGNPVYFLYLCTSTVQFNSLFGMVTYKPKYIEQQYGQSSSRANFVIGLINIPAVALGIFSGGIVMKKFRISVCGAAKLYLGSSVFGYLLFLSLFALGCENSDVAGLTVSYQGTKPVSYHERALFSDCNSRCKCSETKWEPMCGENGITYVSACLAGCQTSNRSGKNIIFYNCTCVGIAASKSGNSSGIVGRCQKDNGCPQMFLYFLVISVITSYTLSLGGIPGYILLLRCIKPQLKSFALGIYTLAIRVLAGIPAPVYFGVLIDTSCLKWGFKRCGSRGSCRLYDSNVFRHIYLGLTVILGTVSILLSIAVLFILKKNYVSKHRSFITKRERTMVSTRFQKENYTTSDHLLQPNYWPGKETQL
Chain of UniProt P33261 (whole entry, looked up): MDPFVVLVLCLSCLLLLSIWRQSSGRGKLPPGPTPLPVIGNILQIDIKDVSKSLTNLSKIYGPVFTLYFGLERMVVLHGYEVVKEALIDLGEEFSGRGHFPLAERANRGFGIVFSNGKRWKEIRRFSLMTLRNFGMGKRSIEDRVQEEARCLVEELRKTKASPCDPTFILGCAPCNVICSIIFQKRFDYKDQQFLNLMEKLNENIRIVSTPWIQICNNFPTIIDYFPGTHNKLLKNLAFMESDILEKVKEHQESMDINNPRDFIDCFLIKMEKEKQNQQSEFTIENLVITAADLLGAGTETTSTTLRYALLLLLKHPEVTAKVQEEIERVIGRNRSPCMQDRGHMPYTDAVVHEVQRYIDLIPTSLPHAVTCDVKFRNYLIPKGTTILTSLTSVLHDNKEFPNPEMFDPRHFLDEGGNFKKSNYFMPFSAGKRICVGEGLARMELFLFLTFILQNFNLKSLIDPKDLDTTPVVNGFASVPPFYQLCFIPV
Chain of UniProt O33336 (whole entry, looked up): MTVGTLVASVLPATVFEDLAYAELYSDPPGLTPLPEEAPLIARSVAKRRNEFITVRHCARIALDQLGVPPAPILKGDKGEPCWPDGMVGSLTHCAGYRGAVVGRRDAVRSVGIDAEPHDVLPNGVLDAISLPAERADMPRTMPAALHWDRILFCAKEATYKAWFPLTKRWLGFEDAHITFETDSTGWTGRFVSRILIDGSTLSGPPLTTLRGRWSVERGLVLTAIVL
Chain of UniProt Q00536 (whole entry, looked up): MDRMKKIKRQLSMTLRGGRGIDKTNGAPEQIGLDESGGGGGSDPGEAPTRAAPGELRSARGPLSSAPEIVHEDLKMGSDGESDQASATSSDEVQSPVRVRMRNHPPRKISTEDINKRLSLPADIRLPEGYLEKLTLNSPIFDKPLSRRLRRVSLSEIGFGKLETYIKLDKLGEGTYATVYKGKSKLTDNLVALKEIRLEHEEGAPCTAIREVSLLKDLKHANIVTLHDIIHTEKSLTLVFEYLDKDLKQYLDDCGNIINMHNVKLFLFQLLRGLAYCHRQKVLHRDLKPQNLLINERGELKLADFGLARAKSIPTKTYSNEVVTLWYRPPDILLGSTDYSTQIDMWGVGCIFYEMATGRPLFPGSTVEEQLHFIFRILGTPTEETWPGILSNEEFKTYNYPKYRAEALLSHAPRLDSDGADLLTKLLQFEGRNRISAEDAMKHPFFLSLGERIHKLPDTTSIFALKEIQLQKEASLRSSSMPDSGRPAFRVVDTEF

CC[C@H](C)[C@H]1C(=O)N[C@@H](Cc2ccc(O)cc2)C(=O)N2CCC[C@H]2C(=O)N[C@H]([C@H](C)O)C(=O)N[C@@H](CC(C)C)C(=O)N[C@@H](C(C)C)C(=O)N[C@@H](C)C(=O)N[C@@H](C)C(=O)N[C@@H](CO)C(=O)N[C@@H](Cc2ccccc2)C(=O)NCC(=O)N[C@H](C(=O)O)CSSC[C@H](N)C(=O)N1C
thermodynamic solubility (aqueous buffer; 18 h, pH 7.4): 842 µM (≈ 1140 µg/mL)

CC(C)C[C@H](NC(=O)[C@@H](NC(=O)CCc1ccccc1)C(C)C)C(=O)N[C@H](C=O)C[C@@H]1CCCNC1=O
CC50 (A549; cell growth or viability, MTT; 24 h): > 100 µM

CCOC(=O)C1=C(CN2CCCC2C(=O)Nc2cccc(B(O)O)c2)NC(c2nccs2)=NC1c1ccc(F)cc1Br (stereo not shown)
CC50 (HepDES19; cell growth or viability, MTS; 72 h): 37 µM

[2H]c1c([2H])c([C@]2([2H])CCCN2C(=O)C(C)(C)Oc2ccc3cn[nH]c3c2)c([2H])c([2H])c1C([2H])([2H])[2H]
remaining binding (TAOK3 (Homo sapiens, UniProt Q9H2K8); binding, competition with immobilised ligand; 1 µM): 100%

C#Cc1ccc2c(c1)C(c1ccccn1)=NCc1c(-c3cnco3)ncn1-2
kinetic solubility (water; 40 min, 37 °C): 182 µg/mL (≈ 518 µM)

CC[C@H](C)[C@@H]1NC(=O)[C@H](CO)NC(=O)[C@H](C(C)C)NC(=O)[C@H](CC(C)C)NC(=O)[C@H](CC(C)C)NC(=O)[C@H]2CCCN2C(=O)[C@@H](CC(C)C)NC(=O)CNC(=O)[C@H]2CCCN2C(=O)[C@@H](Cc2ccc(O)cc2)NC1=O
thermodynamic solubility (aqueous buffer; 18 h, pH 7.4): 687 µM (≈ 724 µg/mL)

CN1CC[C@]23c4c5ccc(O)c4O[C@H]2c2[nH]c4ccccc4c2C[C@@]3(O)[C@H]1C5
half-life (pig, plasma; intravenous, 30 µg/kg): 2.68 h

CC(C)C[C@@H]1C(=O)N[C@@H](Cc2ccccc2)C(=O)N2CCC[C@H]2C(=O)N[C@@H]([C@@H](C)O)C(=O)N[C@@H](C(C)C)C(=O)N[C@H]([C@H](C)O)C(=O)N[C@@H](Cc2ccccc2)C(=O)N[C@@H](CCC(N)=O)C(=O)N[C@H](C(=O)O)CSSC[C@H](N)C(=O)N1C
thermodynamic solubility (aqueous buffer; 18 h, pH 7.4): 457 µM (≈ 535 µg/mL)

CCC[C@@](N)(CO)CCc1ccc(OCCCCCC(C)C)cc1
IC50 (CYP2C19 (Homo sapiens, UniProt P33261); enzyme activity, inhibitor): > 50 µM

Nc1ncc(-c2nc(N3CCOCC3)nc(N3CCOCC3)n2)c(C(F)F)n1
remaining binding (CDKL3 (Homo sapiens, UniProt Q8IVW4); binding, competition with immobilised ligand; 10 µM): 74%

COc1ccc([C@@]23Oc4cc(OC)cc(OC)c4[C@@]24N=C(C2CC2)N[C@@]4(O)[C@H](C(=O)N(C)OC)[C@H]3c2ccccc2)cc1
CC50 (A549-ACE2; cell growth or viability, ATP luminescence; 48 h): 0.2 µM

CC(C)C[C@H](NC(=O)[C@@H](NC(=O)/C=C/c1ccc(C(C)C)cc1)C(C)C)C(=O)N[C@H](C=O)C[C@@H]1CCCNC1=O
CC50 (A549; cell growth or viability, MTT; 24 h): > 100 µM

COc1ncccc1-c1cnn2ccc(N3CCN(C(=O)OC(C)C)CC3)nc12
remaining binding (NEK5 (Homo sapiens, UniProt Q6P3R8); binding, competition with immobilised ligand; 1 µM): 88%

N.N.[Cl][Pt][Cl]
IC50 (Raji; cell growth or viability, ATP luminescence; 72 h): 2.87 µM

NCCc1ccc(Oc2ccc(O)cc2)c(I)c1
IC50 (Solute carrier organic anion transporter family member 1C1 (Homo sapiens, UniProt Q9NYB5); transporter uptake, inhibitor, radiometric): 4.8 µM

COc1ccc([C@@]23Oc4cc(OC)cc(OC)c4[C@@]24NC(C)=N[C@@]4(O)[C@H](C(=O)N(C)OC)[C@H]3c2ccccc2)cc1
half-life (metabolic stability; mouse, liver microsomes): 0.085 h

CC[C@H](C)[C@H]1C(=O)N2CCC[C@H]2C(=O)N[C@@H](CO)C(=O)N[C@H]([C@H](C)O)C(=O)N[C@H](Cc2ccc(O)cc2)C(=O)N[C@@H](CC(C)C)C(=O)NCC(=O)N[C@@H](C(C)C)C(=O)N[C@@H](C)C(=O)N[C@@H](Cc2ccccc2)C(=O)N2CCC[C@H]2C(=O)N1C
solubility (aqueous buffer; 18 h, pH 7.4): 589 µM (≈ 683 µg/mL)

Cc1nn(C)cc1-c1nc2c(N3CCN(Cc4ccc(Cl)cc4)CC3)c(Cl)cnc2[nH]1
remaining binding (CDK16 (Homo sapiens, UniProt Q00536); binding, competition with immobilised ligand; 1 µM): 75%

CSc1nc2ccc(Cl)cc2c(=O)n1Cc1cccnc1
IC50 (4'-phosphopantetheinyl transferase PptT (Mycobacterium tuberculosis, UniProt O33336); enzyme activity, inhibitor, FP): > 100 µM

Repeated from above:
CC[C@H](C)[C@H]1C(=O)N2CCC[C@H]2C(=O)N[C@@H](CO)C(=O)N[C@H]([C@H](C)O)C(=O)N[C@H](Cc2ccc(O)cc2)C(=O)N[C@@H](CC(C)C)C(=O)NCC(=O)N[C@@H](C(C)C)C(=O)N[C@@H](C)C(=O)N[C@@H](Cc2ccccc2)C(=O)N2CCC[C@H]2C(=O)N1C
solubility (aqueous buffer; 18 h, pH 7.4): 589 µM (≈ 683 µg/mL)
